# Published values of several laboratories.
# A part holds a random share of what one study measured. Several values in a cell are separate wells, animals, samples, runs or records. Numbers after ± are the reported error.
# UniProt P9WI81, sequence (whole entry, looked up): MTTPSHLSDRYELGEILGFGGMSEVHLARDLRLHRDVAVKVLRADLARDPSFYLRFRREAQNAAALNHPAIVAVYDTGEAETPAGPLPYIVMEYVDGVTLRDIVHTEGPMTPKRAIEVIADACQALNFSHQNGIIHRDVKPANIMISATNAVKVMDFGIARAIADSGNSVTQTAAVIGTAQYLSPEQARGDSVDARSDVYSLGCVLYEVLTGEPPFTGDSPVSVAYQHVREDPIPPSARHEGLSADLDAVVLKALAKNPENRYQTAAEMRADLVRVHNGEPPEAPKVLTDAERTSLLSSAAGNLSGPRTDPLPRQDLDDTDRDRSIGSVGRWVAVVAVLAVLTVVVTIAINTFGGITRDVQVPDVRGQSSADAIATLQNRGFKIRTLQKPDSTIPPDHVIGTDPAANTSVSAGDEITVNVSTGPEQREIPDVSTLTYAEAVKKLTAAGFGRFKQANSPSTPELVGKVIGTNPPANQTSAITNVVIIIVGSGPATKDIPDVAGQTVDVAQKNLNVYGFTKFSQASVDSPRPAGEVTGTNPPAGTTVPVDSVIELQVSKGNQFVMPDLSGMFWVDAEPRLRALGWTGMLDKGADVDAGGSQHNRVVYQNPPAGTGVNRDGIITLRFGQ
# UniProt P18825, sequence (whole entry, looked up): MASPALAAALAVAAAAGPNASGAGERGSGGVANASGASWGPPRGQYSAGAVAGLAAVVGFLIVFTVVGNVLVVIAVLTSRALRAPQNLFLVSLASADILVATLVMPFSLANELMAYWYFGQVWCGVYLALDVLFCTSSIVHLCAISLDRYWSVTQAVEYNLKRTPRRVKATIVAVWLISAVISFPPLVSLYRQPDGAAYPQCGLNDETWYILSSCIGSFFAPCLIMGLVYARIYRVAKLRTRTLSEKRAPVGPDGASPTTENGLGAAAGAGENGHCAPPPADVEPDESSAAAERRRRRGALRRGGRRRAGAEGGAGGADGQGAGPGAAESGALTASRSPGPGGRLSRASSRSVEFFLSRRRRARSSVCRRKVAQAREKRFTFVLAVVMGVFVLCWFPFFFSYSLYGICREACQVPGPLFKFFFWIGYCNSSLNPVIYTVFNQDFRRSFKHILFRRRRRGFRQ
# UniProt P41143, sequence (whole entry, looked up): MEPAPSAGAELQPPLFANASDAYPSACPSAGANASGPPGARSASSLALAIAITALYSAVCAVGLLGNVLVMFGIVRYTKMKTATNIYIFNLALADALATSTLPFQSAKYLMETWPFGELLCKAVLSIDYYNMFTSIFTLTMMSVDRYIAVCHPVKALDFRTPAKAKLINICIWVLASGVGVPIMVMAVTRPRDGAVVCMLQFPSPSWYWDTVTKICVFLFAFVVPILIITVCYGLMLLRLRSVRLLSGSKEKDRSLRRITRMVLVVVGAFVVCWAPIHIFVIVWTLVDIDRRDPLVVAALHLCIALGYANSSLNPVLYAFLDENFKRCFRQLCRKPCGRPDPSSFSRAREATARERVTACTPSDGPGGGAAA
# UniProt P62344, sequence (whole entry, looked up): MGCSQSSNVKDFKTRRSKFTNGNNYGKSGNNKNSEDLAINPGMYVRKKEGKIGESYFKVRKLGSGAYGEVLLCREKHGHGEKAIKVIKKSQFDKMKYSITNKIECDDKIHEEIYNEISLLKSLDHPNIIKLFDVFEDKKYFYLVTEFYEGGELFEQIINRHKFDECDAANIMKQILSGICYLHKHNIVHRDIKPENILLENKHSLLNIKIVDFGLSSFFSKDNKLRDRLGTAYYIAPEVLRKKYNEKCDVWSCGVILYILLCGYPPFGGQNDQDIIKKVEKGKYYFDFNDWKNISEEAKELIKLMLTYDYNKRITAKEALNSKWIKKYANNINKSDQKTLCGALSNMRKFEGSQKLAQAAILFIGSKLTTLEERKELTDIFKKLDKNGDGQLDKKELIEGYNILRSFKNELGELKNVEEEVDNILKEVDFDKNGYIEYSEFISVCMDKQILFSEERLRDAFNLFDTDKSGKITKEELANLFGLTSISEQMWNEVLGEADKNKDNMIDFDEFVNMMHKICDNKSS

# Block 1 — cell line: HEK-293T; effect on: pseudovirus infection; method: FDA-approved drug library counter-screen; organism: VSV pseudotyped with VSV-G; tested at: 10 µM; time: 16 h; reference: vehicle-treated
Structure (SMILES),GFP-positive cells
CC(CN1c2ccccc2Sc2ccccc21)N(C)C (stereo not shown),127%
C[C@]12C=CC(=O)C=C1CC[C@H]1[C@@H]3C[C@@H](O)[C@](O)(C(=O)CO)[C@@]3(C)C[C@H](O)[C@@]12F,95.5%
C=CC1=C(C(=O)O)N2C(=O)[C@@H](NC(=O)/C(=N\OCC(=O)O)c3csc(N)n3)[C@H]2SC1,78.7%
CC(=O)N1CCN(c2ccc(OCC3COC(Cn4ccnc4)(c4ccc(Cl)cc4Cl)O3)cc2)CC1 (stereo not shown),121%
CO[C@H]1C[C@@H]2CC[C@@H](C)[C@@](O)(O2)C(=O)C(=O)N2CCCC[C@H]2C(=O)O[C@H]([C@H](C)C[C@@H]2CC[C@@H](O)[C@H](OC)C2)CC(=O)[C@H](C)/C=C(\C)[C@@H](O)[C@@H](OC)C(=O)[C@H](C)C[C@H](C)/C=C/C=C/C=C/1C,84%
COC(=O)[C@H]1[C@H]2C[C@@H]3c4[nH]c5cc(OC)ccc5c4CCN3C[C@H]2C[C@@H](OC(=O)c2cc(OC)c(OC)c(OC)c2)[C@@H]1OC,110%
CC(=O)OCC(=O)[C@@]1(OC(C)=O)[C@@H](C)C[C@H]2[C@@H]3C[C@H](F)C4=CC(=O)C=C[C@]4(C)[C@@]3(F)[C@@H](O)C[C@@]21C,111%
CC(=O)NCCCS(=O)(=O)O,126%
CCOC(=O)C1=C[C@@H](OC(CC)CC)[C@H](NC(C)=O)[C@@H](N)C1,107%
O=C(O)c1cc(/N=N/c2ccc(S(=O)(=O)Nc3ccccn3)cc2)ccc1O,94.4%
CCCCC1C(=O)N(c2ccccc2)N(c2ccccc2)C1=O,104%
CCCCCOC(=O)Nc1nc(=O)n([C@@H]2O[C@H](C)[C@@H](O)[C@H]2O)cc1F,108%
Cc1cccc(Nc2ccncc2S(=O)(=O)NC(=O)NC(C)C)c1,101%
COc1ccc(C(CN(C)C)C2(O)CCCCC2)cc1 (stereo not shown),63.5%
CCCOc1ccc(C(=O)OCCN(CC)CC)cc1N,100%
OC(CNCC(O)C1CCc2cc(F)ccc2O1)C1CCc2cc(F)ccc2O1 (stereo not shown),99.7%
Nc1ccc(S(=O)(=O)NC(=O)c2ccccc2)cc1,112%
CC1=C(CC(=O)O)c2cc(F)ccc2/C1=C\c1ccc([S+](C)[O-])cc1 (stereo not shown),107%

# Block 2 — host: human; matrix: microsomes or S9; tested at: 2 µM; time: 0.5 h
SMILES,remaining compound [%]
CC(C)n1c(C(=O)NCc2nnc3ccccn23)cc2cc(Cl)ccc21,57.3
Cc1ccc(/N=C/N(C)/C=N/c2ccc(C)cc2C)c(C)c1,6.62
COc1cccc(Cn2nnc3cc(C(=O)N4CCC5(CC4)OCCO5)ccc32)c1,37.1

# Block 3 — target: chymotrypsin; effect on: enzyme activity; action: inhibitor; tested at: 10 µM; notes: with DTT
SMILES,inhibition
Sc1nnc(Nc2ccccc2)s1,4.7%
O=C1C(Cl)=C(N2CCOCC2)C(=O)N1c1ccc(Cl)c(Cl)c1,7.2%
O=c1c(O)cccc2cc(O)c(O)c(O)c12,9.3%
C=CC1=C(C)c2cc3[nH]c(cc4nc(cc5[nH]c(cc1n2)c(C)c5C=C)C(C)=C4CCC(=O)O)c(CCC(=O)O)c3C.[Fe+3],6.3%
CC(C)(C)OC(=O)NCCc1nnc(S(=O)(=O)Cc2ccc(Cl)cc2Cl)o1,103%
Nc1ccc(O)c2ncccc12,5%
c1ccc2sc(SSc3nc4ccccc4s3)nc2c1,5%
COc1ccc2nc(S)[nH]c2c1,8.5%
CC1=CC(=O)c2ccccc2C1=O,6.6% and -1.7%
N#CSc1cc(SC#N)c(N)nc1N,4.6%
O=[N+]([O-])c1ccc(Sc2cccc[n+]2[O-])c2nonc12,4.9%
CC1=C(/C=C/C(C)=C/C=C/C(C)=C/C(=O)O)C(C)(C)CCC1,0.8%
Oc1cc2c(cc1C(c1ccc(C(F)(F)F)cc1)N1CCOCC1)OCO2 (stereo not shown),7%
CNc1nc(Nc2cn(C(C)(C)C#N)nc2C)ncc1C(F)(F)F,4.6%
S=C=Nc1cccc(NC(=S)NCCCCNC(=S)Nc2cccc(N=C=S)c2)c1,6%
O=C(CC1Sc2ncnn2C1=O)Nc1ccc(Br)cc1 (stereo not shown),8.4%
O=c1c2ccccc2sn1-c1ccccc1,8.9%
CC(C)(C)NC(=O)N[C@H](C(=O)N1C[C@H]2[C@@H]([C@H]1C(=O)NC(CC1CCC1)C(=O)C(N)=O)C2(C)C)C(C)(C)C (stereo partly shown),99.9%
O=C(NC(=S)N1CCCc2ccccc21)c1ccccc1,5.4%
COc1nc2ccc(Br)cc2cc1[C@@H](c1ccccc1)[C@@](O)(CCN(C)C)c1cccc2ccccc12,7.8%
CN1CCN(C2=C(Cl)C(=O)N(c3ccc(Cl)c(Cl)c3)C2=O)CC1,9.7%
O=C(O)/C(S)=C/c1ccc(I)cc1,17.2%
Nc1nc(=S)c2ncn([C@@H]3O[C@H](CO)[C@@H](O)[C@H]3O)c2[nH]1,7.6%
COc1ccc2[nH]c([S+]([O-])Cc3ncc(C)c(OC)c3C)nc2c1 (stereo not shown),8.1%

# Single results of other studies
SMILES,target,effect on,method,cells,tested at,quantity,value
CN([C@@H]1CCc2c(CC(=O)O)c3cc(S(C)(=O)=O)ccc3n2C1)S(=O)(=O)c1ccc(F)cc1,"CDPK1 (Plasmodium falciparum, UniProt P62344)",cell-free assay,competition with immobilised ligand,,1 µM,remaining binding,75%
CCN(CC)C(=O)c1ccc(C2=CC3(CCNCC3)Oc3cccc(O)c32)cc1,"Delta-type opioid receptor, with Gi3 (OPRD1, Homo sapiens, UniProt P41143)",,,human cells,,Emax,111 ± 2%
CNCc1ccccc1-c1csc([C@@H](C)Nc2nc(C)nc3cc(OC)c(OC)cc23)c1,"pknB (Mycobacterium tuberculosis, UniProt P9WI81)",cell-free assay,competition with immobilised ligand,,1 µM,remaining binding,76%
CNC(=O)c1cc(C(=O)NC2CC2)cn(Cc2ccccc2)c1=O,"ADRA2C (Homo sapiens, UniProt P18825)",binding,radioligand binding,,10 µM,inhibition,0.69%

# For quick reference, copied from above (block 3):
SMILES,inhibition
S=C=Nc1cccc(NC(=S)NCCCCNC(=S)Nc2cccc(N=C=S)c2)c1,6%
O=C1C(Cl)=C(N2CCOCC2)C(=O)N1c1ccc(Cl)c(Cl)c1,7.2%
O=C(O)/C(S)=C/c1ccc(I)cc1,17.2%
CC1=C(/C=C/C(C)=C/C=C/C(C)=C/C(=O)O)C(C)(C)CCC1,0.8%
Oc1cc2c(cc1C(c1ccc(C(F)(F)F)cc1)N1CCOCC1)OCO2 (stereo not shown),7%
COc1ccc2[nH]c([S+]([O-])Cc3ncc(C)c(OC)c3C)nc2c1 (stereo not shown),8.1%
O=c1c(O)cccc2cc(O)c(O)c(O)c12,9.3%
O=[N+]([O-])c1ccc(Sc2cccc[n+]2[O-])c2nonc12,4.9%
